Assay results gathered from unrelated publications.
Numbered parts are unrelated; each lists some results of a single study.

Study 1
Compound: COc1cc(C(=O)N2CCC(N3CCN(C)CC3)CC2)ccc1Nc1ncc2c(n1)N(C)c1ccccc1C(=O)N2C
Measurement: inhibition
LCK human; KiNativ profiling; human PBMC; concentration not given, activation loop site, added: ATP acyl phosphate probe: 2.1%
mouse CaMK1δ; probe labelling, KiNativ ATP probe; mouse brain lysate; 1 µM, LYS1 site LFAVkCIPK: -14.3%
mouse NEK9; probe labelling, KiNativ ATP probe; mouse brain lysate; 0.1 µM, activation loop LGDYGLAkK: 2.8%
human PBMC; probe labeling, inhibitor, KiNativ profiling, measured: DIkGANILR; cell lysate; 1 µM, LYS2 site, added: ADP acyl-phosphate probe: 2.1%

Study 2
Target: Ephrin type-A receptor 6 (EPHA6, Homo sapiens, UniProt Q9UF33)
Chain of UniProt Q9UF33 (whole entry, looked up): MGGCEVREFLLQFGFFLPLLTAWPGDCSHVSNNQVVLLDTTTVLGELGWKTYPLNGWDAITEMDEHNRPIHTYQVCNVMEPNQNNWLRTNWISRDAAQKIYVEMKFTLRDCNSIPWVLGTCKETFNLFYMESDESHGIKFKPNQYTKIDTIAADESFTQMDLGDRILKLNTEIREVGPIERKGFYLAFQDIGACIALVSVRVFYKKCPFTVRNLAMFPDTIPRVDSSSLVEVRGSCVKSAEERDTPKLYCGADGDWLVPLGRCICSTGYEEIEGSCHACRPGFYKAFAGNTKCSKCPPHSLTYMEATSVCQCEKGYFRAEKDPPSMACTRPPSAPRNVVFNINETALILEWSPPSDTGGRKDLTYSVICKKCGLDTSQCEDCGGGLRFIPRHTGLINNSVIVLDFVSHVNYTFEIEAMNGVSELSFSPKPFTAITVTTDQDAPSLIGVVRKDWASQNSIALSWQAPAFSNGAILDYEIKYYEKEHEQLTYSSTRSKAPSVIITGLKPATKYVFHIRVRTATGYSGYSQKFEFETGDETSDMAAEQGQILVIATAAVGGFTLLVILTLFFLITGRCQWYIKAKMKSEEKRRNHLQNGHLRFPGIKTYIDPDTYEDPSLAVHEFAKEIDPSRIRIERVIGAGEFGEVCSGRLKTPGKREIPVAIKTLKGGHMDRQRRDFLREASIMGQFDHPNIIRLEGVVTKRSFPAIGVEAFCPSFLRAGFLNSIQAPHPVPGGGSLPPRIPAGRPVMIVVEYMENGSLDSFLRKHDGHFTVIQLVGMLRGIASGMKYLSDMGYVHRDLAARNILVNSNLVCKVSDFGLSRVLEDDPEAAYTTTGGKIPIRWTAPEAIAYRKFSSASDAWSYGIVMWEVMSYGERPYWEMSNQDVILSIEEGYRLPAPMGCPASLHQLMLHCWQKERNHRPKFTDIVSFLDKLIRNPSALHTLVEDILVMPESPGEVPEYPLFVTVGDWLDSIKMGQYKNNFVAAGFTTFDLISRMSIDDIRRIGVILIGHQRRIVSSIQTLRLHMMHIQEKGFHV
Read-out: enzyme activity
Mode: inhibitor
Tested at: 0.5 µM
Baseline: control
Measurement: remaining activity
Cc1cccc(-c2[nH]c(C(C)(C)C)nc2-c2ccc3c(c2)OCO3)n1: 92.7%
Cc1ccc(NC(=O)c2ccc(CN3CCN(C)CC3)cc2)cc1Nc1nc(-c2cccnc2)cs1: 98.2%
N#CC(C#N)=C(N)/C(C#N)=C/c1ccc(O)cc1: 98.6%
COc1cc2ncnc(Nc3ccc(F)c(Cl)c3)c2cc1OCCCN1CCOCC1: 28.9%
O=C(CCCc1ccc(-c2ccccc2F)cc1)Nc1ccc(O)cc1: 89.6%
O=C1NC(=O)C(c2cn(CCCn3ccnc3)c3ccccc23)=C1Nc1ccccc1: 106%
O=C(O)c1ccc2c3c1cccc3c(=O)n1c3ccccc3nc21: 105%
CCOC(=O)c1c(C)[nH]c(/C=C2\C(=O)Nc3ccccc32)c1C: 80%
Nc1ccc2ncnc(NCCc3ccc(Oc4ccccc4)cc3)c2c1: 92.8%
NCCNc1ncc(C(N)=O)c(Nc2cccc(C(F)(F)F)c2)n1: 96.9%
C#Cc1cccc(Nc2ncnc3cc(OCCOC)c(OCCOC)cc23)c1: 40.4%
Cc1nc(-c2ccccc2)c(-c2ccncc2)o1: 95.9%
COc1cc2ncnc(Nc3ccc(Oc4ccccc4)cc3)c2cc1OC: 64.8%

Study 3
Target: Histamine H2 receptor (HRH2, Homo sapiens, UniProt P25021)
Chain of UniProt P25021 (whole entry, looked up): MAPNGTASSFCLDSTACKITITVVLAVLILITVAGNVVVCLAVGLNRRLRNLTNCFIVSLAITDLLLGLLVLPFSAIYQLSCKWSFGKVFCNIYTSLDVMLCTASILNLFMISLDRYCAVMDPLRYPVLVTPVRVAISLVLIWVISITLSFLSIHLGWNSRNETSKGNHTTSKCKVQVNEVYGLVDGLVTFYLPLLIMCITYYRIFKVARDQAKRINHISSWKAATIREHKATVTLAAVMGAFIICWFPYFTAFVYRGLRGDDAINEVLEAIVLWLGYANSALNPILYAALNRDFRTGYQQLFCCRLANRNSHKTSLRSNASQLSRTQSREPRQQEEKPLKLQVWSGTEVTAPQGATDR
Read-out: binding
Technique: radioligand binding
Tested at: 10 µM
Measurement: inhibition
CC1=C(C#N)[C@@H](c2ccc3[nH]nc(C)c3c2)C(C#N)=C(c2ccc(Cl)cc2)N1: 14.1%
CCOCCn1cc(C(=O)Nc2ccc(-n3nc(-c4cccnc4)cc3C(F)(F)F)cn2)ccc1=O: -3.48%
CC(C)(O)c1cncc(-c2nc3ccc(F)cc3n2C2CC2)c1: 1.75%
Cc1cc(-n2nc(Cc3cc(F)cc(C(F)(F)F)c3)nc2C)ccc1C(N)=O: 6.28%
CCOC(=O)c1cc2cc(-c3cc(C(=O)NCc4ccc(C(=O)O)cc4)nn3C)ccc2[nH]1: -14.4%

Study 4
Organism: Plasmodium berghei
Mode: inhibitor
Cells: Huh-7
Strain: GFP-expressing, liver stage
Tested at: 10 µM
Time: 24 h
Baseline: untreated control
Measurement: infection rate
CN(C)CCc1c[nH]c2ccc(C[C@H]3COC(=O)N3)cc12: 98.4%
CCCOc1ccc(C(=O)OCCN(CC)CC)cc1N: 79%
Cn1c(=O)c2nc[nH]c2n(C)c1=O: 106%
CCCOc1ccc2[nH]c(NC(=O)OC)nc2c1: 88.1%

Excerpt of the above (study 2):
Cc1ccc(NC(=O)c2ccc(CN3CCN(C)CC3)cc2)cc1Nc1nc(-c2cccnc2)cs1: 98.2%
